Results of several laboratories.
± gives the spread as reported.

Cn1cc(-c2cnc3cnn(S(=O)(=O)c4cnc5ccc(-c6cnn(C)c6)cn45)c3c2)cn1  Cmax and AUC ratio (healthy Chinese male subjects, plasma; oral, 300 mg single dose; relative to: high- or low-fat meal over fasted): ~2 fold
N[C@@H](CC(=O)N1CCc2c(nc(C(F)(F)F)nc2C(F)(F)F)C1)CN1CC(F)(F)CCC1=O  Cmax ratio steady state (healthy Korean men, plasma; oral, dose not given, together with: glimepiride; relative to: with over without glimepiride): 1.01
Cc1cc(C(C#N)c2ccc(Cl)cc2)c(Cl)cc1NC(=O)c1cc(I)cc(I)c1O (centres unmarked)  Cmax (parasitized Corriedale lambs, plasma; subcutaneous, 5 mg/kg): 119000 ± 24900 ng/mL
CC[C@H](C)[C@H](NC(=O)[C@@H](N)CCCNC(=N)N)C(=O)N[C@H](C(=O)N1CCC[C@H]1C(=O)N[C@@H](C)C(N)=O)C(C)C  Cmax (healthy volunteers, both sexes, plasma; intravenous infusion, 4.5 mg/kg daily, day 7, multiple ascending dose): 16600 ± 10200 ng/mL
Cc1cc(=O)[nH]c2c1NC(=O)c1cccnc1N2C1CC1  Cmax (olive baboon (Papio anubis), non-pregnant, serum; oral, 800 mg nevirapine, tablet): 5.6 ± 4.34 ng/mL
Cc1ncc2n1-c1ccc(Cl)cc1C(c1ccccc1F)=NC2  Cmax (healthy men, plasma; oral, 7.5 mg, day 26, LS mean, together with: 14 days post amenamevir): 37 ng/mL
CCCCCOc1ccc(-c2cc(-c3ccc(C(=O)N[C@H]4C[C@@H](O)[C@@H](O)NC(=O)[C@@H]5[C@@H](O)[C@@H](C)CN5C(=O)[C@H]([C@H](O)CC(N)=O)NC(=O)[C@H]([C@H](O)[C@@H](O)c5ccc(O)c(OS(=O)(=O)O)c5)NC(=O)[C@@H]5C[C@@H](O)CN5C(=O)[C@H]([C@@H](C)O)NC4=O)cc3)no2)cc1  Cmax (young infants, plasma; intravenous, 7 and 10 mg/kg/day pooled, day 4, mean, repeat dosing): 27300 ng/mL
O=c1[nH]c(Cc2ccccn2)nc2c1cnn2C1CCOCC1  Cmax (healthy men, extensive metabolizers, plasma; oral, 200 mg single dose, tablet, geometric mean): 2950 nM

For quick reference, copied from above:
CC[C@H](C)[C@H](NC(=O)[C@@H](N)CCCNC(=N)N)C(=O)N[C@H](C(=O)N1CCC[C@H]1C(=O)N[C@@H](C)C(N)=O)C(C)C  Cmax (healthy volunteers, both sexes, plasma; intravenous infusion, 4.5 mg/kg daily, day 7, multiple ascending dose): 16600 ± 10200 ng/mL
